Results of several laboratories.
Parts stem from different laboratories: compare values within a part only.
Sequence of UniProt P22455 (whole entry, looked up): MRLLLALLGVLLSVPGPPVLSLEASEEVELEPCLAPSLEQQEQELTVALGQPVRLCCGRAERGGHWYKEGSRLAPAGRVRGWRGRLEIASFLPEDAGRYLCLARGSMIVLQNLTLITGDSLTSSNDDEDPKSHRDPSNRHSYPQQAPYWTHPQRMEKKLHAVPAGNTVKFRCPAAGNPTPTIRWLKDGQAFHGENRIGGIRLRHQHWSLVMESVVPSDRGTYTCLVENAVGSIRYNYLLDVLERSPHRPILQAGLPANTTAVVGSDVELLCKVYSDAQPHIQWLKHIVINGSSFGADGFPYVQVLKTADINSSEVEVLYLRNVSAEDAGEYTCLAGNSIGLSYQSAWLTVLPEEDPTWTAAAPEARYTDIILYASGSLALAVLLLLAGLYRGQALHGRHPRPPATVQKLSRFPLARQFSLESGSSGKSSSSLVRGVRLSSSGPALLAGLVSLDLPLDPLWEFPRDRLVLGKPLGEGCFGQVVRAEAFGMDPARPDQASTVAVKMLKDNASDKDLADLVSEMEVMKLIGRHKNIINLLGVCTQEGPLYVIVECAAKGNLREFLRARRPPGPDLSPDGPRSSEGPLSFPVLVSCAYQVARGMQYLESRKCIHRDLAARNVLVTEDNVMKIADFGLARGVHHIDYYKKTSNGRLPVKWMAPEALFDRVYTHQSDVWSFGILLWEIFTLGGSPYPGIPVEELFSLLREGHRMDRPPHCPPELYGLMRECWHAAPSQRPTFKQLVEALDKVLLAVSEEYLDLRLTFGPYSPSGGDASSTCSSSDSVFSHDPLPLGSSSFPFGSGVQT
Sequence of UniProt Q8NG66 (whole entry, looked up): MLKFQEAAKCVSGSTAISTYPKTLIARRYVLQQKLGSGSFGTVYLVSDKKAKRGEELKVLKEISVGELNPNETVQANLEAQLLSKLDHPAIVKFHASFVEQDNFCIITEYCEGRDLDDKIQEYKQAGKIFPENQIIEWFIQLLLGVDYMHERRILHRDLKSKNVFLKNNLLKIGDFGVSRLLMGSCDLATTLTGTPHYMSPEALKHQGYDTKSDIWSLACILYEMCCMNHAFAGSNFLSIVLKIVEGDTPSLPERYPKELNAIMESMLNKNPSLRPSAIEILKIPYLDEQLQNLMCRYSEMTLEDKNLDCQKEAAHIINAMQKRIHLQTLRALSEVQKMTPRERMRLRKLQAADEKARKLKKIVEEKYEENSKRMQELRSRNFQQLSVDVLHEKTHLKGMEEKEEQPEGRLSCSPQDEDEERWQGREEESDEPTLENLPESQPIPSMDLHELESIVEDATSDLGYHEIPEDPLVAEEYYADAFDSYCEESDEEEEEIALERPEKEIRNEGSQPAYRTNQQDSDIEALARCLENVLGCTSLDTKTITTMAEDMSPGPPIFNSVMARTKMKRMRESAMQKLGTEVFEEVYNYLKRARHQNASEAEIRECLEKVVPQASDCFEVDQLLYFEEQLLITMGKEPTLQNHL
Sequence of UniProt Q13546 (whole entry, looked up): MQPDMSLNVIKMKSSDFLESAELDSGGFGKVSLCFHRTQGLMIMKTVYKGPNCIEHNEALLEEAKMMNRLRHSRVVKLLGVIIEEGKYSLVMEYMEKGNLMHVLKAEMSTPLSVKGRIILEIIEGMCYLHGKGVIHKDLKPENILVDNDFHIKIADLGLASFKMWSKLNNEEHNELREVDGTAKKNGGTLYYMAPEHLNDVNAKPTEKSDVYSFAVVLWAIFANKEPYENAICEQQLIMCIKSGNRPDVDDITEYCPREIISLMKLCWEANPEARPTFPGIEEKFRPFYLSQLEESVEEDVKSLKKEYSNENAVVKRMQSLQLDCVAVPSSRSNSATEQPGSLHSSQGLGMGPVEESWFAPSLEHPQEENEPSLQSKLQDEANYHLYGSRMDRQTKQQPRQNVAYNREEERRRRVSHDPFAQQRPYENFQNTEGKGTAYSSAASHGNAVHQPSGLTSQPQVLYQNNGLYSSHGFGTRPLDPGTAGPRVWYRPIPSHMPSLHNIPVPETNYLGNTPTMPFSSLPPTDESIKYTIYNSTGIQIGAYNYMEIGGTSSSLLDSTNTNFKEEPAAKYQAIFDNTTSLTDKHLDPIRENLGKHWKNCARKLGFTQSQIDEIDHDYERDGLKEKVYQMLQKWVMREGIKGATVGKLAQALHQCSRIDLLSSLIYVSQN
Sequence of UniProt P48729 (whole entry, looked up): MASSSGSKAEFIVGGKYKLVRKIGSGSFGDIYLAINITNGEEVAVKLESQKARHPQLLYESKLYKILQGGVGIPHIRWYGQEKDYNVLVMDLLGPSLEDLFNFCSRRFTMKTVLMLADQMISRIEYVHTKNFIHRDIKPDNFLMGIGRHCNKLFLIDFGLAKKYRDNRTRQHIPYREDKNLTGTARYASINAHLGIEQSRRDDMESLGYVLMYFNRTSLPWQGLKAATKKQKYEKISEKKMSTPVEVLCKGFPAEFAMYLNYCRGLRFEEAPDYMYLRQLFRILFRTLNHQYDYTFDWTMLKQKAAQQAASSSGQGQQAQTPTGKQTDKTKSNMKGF
Sequence of UniProt P08581 (whole entry, looked up): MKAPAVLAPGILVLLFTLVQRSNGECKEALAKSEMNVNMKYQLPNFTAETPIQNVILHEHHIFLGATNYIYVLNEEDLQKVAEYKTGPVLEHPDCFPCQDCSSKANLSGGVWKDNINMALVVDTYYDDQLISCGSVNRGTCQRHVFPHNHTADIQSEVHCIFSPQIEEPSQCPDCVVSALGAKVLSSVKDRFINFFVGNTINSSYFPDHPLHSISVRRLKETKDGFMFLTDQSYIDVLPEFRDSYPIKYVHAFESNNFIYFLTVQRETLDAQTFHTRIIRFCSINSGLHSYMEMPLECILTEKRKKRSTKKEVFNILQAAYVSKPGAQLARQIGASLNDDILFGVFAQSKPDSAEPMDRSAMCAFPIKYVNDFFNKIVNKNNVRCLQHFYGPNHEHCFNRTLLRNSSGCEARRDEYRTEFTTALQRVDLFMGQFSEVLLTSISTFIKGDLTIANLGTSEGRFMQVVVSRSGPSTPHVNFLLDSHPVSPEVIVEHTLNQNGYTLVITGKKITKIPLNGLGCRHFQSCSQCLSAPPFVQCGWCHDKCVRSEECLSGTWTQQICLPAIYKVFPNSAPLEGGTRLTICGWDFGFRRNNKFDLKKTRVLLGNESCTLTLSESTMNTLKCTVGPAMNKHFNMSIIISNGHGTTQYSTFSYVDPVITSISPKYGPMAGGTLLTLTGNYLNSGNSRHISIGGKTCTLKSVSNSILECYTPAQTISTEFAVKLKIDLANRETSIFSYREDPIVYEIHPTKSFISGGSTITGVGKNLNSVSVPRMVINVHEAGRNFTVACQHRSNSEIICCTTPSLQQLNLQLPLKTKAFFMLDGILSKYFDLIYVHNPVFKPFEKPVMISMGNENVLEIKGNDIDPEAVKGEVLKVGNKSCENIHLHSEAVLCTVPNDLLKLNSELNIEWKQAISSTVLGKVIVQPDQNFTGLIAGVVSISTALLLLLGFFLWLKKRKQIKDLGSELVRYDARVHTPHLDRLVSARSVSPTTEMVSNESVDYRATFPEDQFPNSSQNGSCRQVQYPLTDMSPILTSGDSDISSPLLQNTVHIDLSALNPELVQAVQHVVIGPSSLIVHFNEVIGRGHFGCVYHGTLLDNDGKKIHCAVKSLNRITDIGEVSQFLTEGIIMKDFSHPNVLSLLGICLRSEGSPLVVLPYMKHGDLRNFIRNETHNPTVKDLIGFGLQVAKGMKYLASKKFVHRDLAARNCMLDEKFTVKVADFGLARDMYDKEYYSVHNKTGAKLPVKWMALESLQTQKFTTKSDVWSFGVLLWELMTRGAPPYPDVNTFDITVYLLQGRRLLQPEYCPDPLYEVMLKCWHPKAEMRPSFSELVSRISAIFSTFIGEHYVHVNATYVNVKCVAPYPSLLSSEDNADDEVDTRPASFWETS
Sequence of UniProt P51813 (whole entry, looked up): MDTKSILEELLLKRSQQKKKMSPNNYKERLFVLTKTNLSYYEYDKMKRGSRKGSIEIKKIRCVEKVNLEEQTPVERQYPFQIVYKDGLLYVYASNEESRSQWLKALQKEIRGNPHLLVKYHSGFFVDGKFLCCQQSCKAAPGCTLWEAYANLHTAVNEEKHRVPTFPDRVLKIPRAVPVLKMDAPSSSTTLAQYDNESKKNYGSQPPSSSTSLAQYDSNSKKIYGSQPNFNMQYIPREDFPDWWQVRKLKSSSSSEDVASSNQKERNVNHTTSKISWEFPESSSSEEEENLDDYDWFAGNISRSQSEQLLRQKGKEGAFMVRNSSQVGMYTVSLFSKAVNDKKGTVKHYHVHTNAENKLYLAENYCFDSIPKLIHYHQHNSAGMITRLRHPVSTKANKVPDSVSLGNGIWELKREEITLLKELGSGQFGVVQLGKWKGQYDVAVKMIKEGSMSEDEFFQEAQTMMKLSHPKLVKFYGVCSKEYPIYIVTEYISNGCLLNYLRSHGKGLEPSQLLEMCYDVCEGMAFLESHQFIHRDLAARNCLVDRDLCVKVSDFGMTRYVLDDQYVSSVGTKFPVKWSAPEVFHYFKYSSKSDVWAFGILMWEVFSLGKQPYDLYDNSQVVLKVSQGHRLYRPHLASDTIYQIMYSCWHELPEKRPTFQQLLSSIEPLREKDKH

Block 1 — observed: cell-free assay; technique: competition with immobilised ligand; concentration: 1 µM; measurement: remaining binding
Structure (SMILES): O=C(O)c1cc(-c2ccc(C3CCNCC3)cc2)c2ccc(-c3ccc(C(F)(F)F)cc3)cc2c1
Mast/stem cell growth factor receptor Kit (KIT, Homo sapiens, UniProt P10721, V559D/V654A): 100%
Protein kinase C delta type (PRKCD, Homo sapiens, UniProt Q05655): 100%
Casein kinase I isoform alpha (CSNK1A1, Homo sapiens, UniProt P48729): 83%
Fibroblast growth factor receptor 4 (FGFR4, Homo sapiens, UniProt P22455): 100%
Hepatocyte growth factor receptor (MET, Homo sapiens, UniProt P08581): 100%
Non-receptor tyrosine-protein kinase TNK1 (TNK1, Homo sapiens, UniProt Q13470): 100%
Ribosomal protein S6 kinase alpha-2, C-terminal kinase domain (RPS6KA2, Homo sapiens, UniProt Q15349): 100%
Serine/threonine-protein kinase BRSK1 (BRSK1, Homo sapiens, UniProt Q8TDC3): 100%
Cyclin-dependent kinase-like 5 (CDKL5, Homo sapiens, UniProt O76039): 100%
Mitogen-activated protein kinase kinase kinase 11 (MAP3K11, Homo sapiens, UniProt Q16584): 100%
Cytoplasmic tyrosine-protein kinase BMX (BMX, Homo sapiens, UniProt P51813): 100%
Myosin light chain kinase, smooth muscle (MYLK, Homo sapiens, UniProt Q15746): 85%
Serine/threonine-protein kinase Nek11 (NEK11, Homo sapiens, UniProt Q8NG66): 100%
Receptor-interacting serine/threonine-protein kinase 1 (RIPK1, Homo sapiens, UniProt Q13546): 100%
Ribosomal protein S6 kinase alpha-4, C-terminal kinase domain (RPS6KA4, Homo sapiens, UniProt O75676): 100%

Block 2 — observed: enzyme activity; mode: inhibitor; concentration: 0.5 µM; reference: control; measurement: remaining activity
Target: Fibroblast growth factor receptor 4 (FGFR4, Homo sapiens, UniProt P22455)
O=C1c2ccccc2-c2nc3nnnn3nc21: 58%
O=C1NC(=O)/C(=C/c2ccc3c(c2)OC(F)(F)O3)S1: 91%
C[C@@H](N)[C@H]1CC[C@H](C(=O)Nc2ccncc2)CC1: 108%
COc1cc2c(N3CCN(C(=O)Nc4ccc(OC(C)C)cc4)CC3)ncnc2cc1OCCCN1CCCCC1: 87.8%
O=C(c1ccccc1)c1ccc(N2CCOCC2)cc1O: 106%
CCCCc1c(-c2ccc(O)cc2)[nH]c2nccnc12: 91.8%
NC(=O)c1cccc(-c2cc(Nc3ccc(OC(F)(F)F)cc3)ncn2)c1: 92.9%
CCN(CC)CCCCN1c2ccccc2Oc2ccc(Cl)cc21: 92.6%
FC(F)(F)c1ccc(/C=C/c2nc(COc3ccc(CCCCn4ccnn4)cc3)co2)cc1: 88.3%
CC(C)n1cnc2c(Nc3cccc(Cl)c3)nc(NCCO)nc21: 86.5%
N#C/C(=C(/N)SC1C=CC=CC1)c1cccc(C(O)c2ccncc2)c1 (stereo not shown): 107%
O=C(O)/C=C/c1cc(Br)c(Br)c(Br)c1Br: 88.3%
COc1cc2c(Nc3ccc(Br)cc3F)ncnc2cc1OCC1CCN(C)CC1: 90%
N#CC(c1ccnc(NCCc2cccnc2)n1)c1nc2ccccc2s1 (stereo not shown): 101%
O=Nc1c(-c2c(O)[nH]c3ccccc23)[nH]c2ccccc12: 91.9%
CNc1cc2c(Nc3cccc(Br)c3)ncnc2cn1: 93.7%
CC(C)N(CCC(=O)c1ccc2ccccc2c1)Cc1ccccc1: 103%
Nc1nc(Nc2ccc(S(N)(=O)=O)cc2)nn1C(=S)Nc1c(F)cccc1F: 32.2%
CC(C)(C)c1nc2c3cc[nH]c(=O)c3c3cc(F)ccc3c2[nH]1: 96.5%
O=c1c(-c2ccc(F)cc2)c(-c2ccncc2)[nH]n1-c1ccc(Cl)cc1: 92.4%
NC(=O)c1ccc(-c2nc(-c3ccc4c(c3)OCCO4)c(-c3ccccn3)[nH]2)cc1: 91.1%
c1cc(-c2cnn3cc(-c4ccc(OCCN5CCCCC5)cc4)cnc23)ccn1: 89%
Clc1ccc(Nc2nnc(Cc3ccncc3)c3ccccc23)cc1: 95.8%

Block 3 — observed: enzyme activity; mode: inhibitor; concentration: 10 µM; measurement: inhibition
Target: Calcium/calmodulin-dependent protein kinase type II subunit alpha (CAMK2A, Homo sapiens, UniProt Q9UQM7)
Sequence of UniProt Q9UQM7 (whole entry, looked up): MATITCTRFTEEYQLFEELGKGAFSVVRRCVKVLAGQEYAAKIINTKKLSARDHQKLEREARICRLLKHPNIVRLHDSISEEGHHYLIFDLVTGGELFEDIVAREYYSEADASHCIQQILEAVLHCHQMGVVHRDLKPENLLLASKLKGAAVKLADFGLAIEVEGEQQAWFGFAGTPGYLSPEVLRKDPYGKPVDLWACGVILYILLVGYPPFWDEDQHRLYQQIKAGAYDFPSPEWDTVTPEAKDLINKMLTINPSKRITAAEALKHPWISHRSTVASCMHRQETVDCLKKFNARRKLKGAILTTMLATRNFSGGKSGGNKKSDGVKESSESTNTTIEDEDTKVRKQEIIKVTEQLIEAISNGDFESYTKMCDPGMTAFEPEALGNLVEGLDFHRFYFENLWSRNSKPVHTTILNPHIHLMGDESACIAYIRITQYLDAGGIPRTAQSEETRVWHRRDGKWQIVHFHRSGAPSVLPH
CCN(CC)CCn1c(=O)c(Cc2ccc(OC)cc2)nc2ccccc21: 5%
O=C(O)CCCCCCC(=O)O: -21%
O=c1[nH]cnc2c([C@@H]3N[C@H](CO)[C@@H](O)[C@H]3O)c[nH]c12: 2%
COc1c2c(cc3oc(CO[C@@H]4O[C@H](CO)[C@@H](O)[C@H](O)[C@H]4O)cc(=O)c13)O[C@H](C(C)(C)O)C2: 16%
C[n+]1cccc(C(N)=O)c1: -23%
COc1cc2c[n+](C)c3c4cc5c(cc4ccc3c2cc1OC)OCO5: -24%
COC(=O)C1=CO[C@@H](O[C@@H]2O[C@H](CO)[C@@H](O)[C@H](O)[C@H]2O)[C@H]2[C@@H]1[C@H](O)C[C@]2(C)O: -15%
CC(=O)SCC(Cc1ccccc1)C(=O)NCC(=O)OCc1ccccc1 (stereo not shown): -10%
C=C(C)[C@@H](O)COc1c2ccoc2cc2oc(=O)ccc12: -26%
Cc1ccc(Cl)c(OCC(O)CNC(C)(C)C)c1 (stereo not shown): -10%
Cc1nc2n(c(=O)c1CCN1CCC(c3noc4cc(F)ccc34)CC1)CCCC2O (stereo not shown): 6%
COc1ccc(C[C@H]2COC(=O)[C@@H]2Cc2ccc(O[C@@H]3O[C@H](CO)[C@@H](O)[C@H](O)[C@H]3O)c(OC)c2)cc1OC: -114%
OC[C@H]1O[C@@H](Oc2cc3c(O)cc(O)cc3[o+]c2-c2ccc(O)c(O)c2)[C@H](O)[C@@H](O)[C@@H]1O: 13%
CC(=O)c1cccc(O)c1: -18%

Block 4 — cell line: Huh-7; concentration: 10 µM; time: 24 h; measurement: viability
CC1=CC(=O)c2ccccc2C1=O: 57.6%
CCN(CC)CCOCCOC(=O)C1(c2ccccc2)CCCC1: 93.9%
CCOC(=O)C1=C[C@@H](OC(CC)CC)[C@H](NC(C)=O)[C@@H](N)C1: 105%
COc1cc2nc(N(C)CCCNC(=O)C3CCCO3)nc(N)c2cc1OC (racemic): 98.1%
NS(=O)(=O)c1cc2c(cc1Cl)NC(C(Cl)Cl)NS2(=O)=O (stereo not shown): 102%
COc1cc(CNC(=O)CCCC/C=C/C(C)C)ccc1O: 90.3%
Cc1onc(-c2ccccc2)c1C(=O)N[C@@H]1C(=O)N2[C@@H]1SC(C)(C)[C@@H]2C(=O)O: 100%
CC(=O)O[C@]1(C(C)=O)CC[C@H]2[C@@H]3C[C@H](C)C4=CC(=O)CC[C@]4(C)[C@H]3CC[C@@]21C: 89.8%
CN1CCCC(n2nc(Cc3ccc(Cl)cc3)c3ccccc3c2=O)CC1 (stereo not shown): 100%
CCCCC(=O)O[C@]1(C(=O)CO)CC[C@H]2[C@@H]3CCC4=CC(=O)CC[C@]4(C)[C@H]3[C@@H](O)C[C@@]21C: 96.9%
C1N2CN3CN1CN(C2)C3: 91.6%
CCN(CC)CCNC(=O)c1ccc(N)cc1: 101%
CC(=O)Nc1ccccc1: 97.2%
NC(=O)NC(=O)Cc1ccccc1: 98.5%
CCCCC(=O)N(Cc1ccc(-c2ccccc2-c2nnn[nH]2)cc1)[C@H](C(=O)O)C(C)C: 99.4%

Some of these lines once more (block 1):
Cyclin-dependent kinase-like 5 (CDKL5, Homo sapiens, UniProt O76039): 100%
Mitogen-activated protein kinase kinase kinase 11 (MAP3K11, Homo sapiens, UniProt Q16584): 100%
Cytoplasmic tyrosine-protein kinase BMX (BMX, Homo sapiens, UniProt P51813): 100%
Myosin light chain kinase, smooth muscle (MYLK, Homo sapiens, UniProt Q15746): 85%
Serine/threonine-protein kinase Nek11 (NEK11, Homo sapiens, UniProt Q8NG66): 100%
